Assay results from different studies.
Each line is one published result; not all experiments were run side by side. ± marks the error that the study gave.

Structure (SMILES)	cell line	test	system	conditions	how to read	quantity	result
Cc1cc(Oc2nc(N3CC[C@@H](c4ccncc4)C3)ncc2F)[nH]n1	U2OS	cell proliferation	bone cancer			IC50	> 100 µM
CC(C)C12OC1C1OC13C1(C)CCC4=C(COC4=O)C1CC1OC13C2OC(=O)CCC(=O)OC1OC(CO)C(O)C(O)C1O (stereo not shown)	primary mammary epithelial cells	cell viability, XTT		47 h		IC50	2.56 µM
CC(C)CC(O)(CC(C)C)c1cn(C(=O)N2CCCC2)nn1	mouse T-cells	SILAC proteomics, refers to: PAIP2		1 nM, 6 h, unit not given	reference: DMSO	protein level	0.9
O=C(O)c1ccc(-c2nc(-c3ccccc3Cl)c3sccn23)cc1	HEL	flow cytometry, refers to: surface CD61		0.01 mM	higher = more expression	mean fluorescence intensity	31600 a.u.
C=CCN1C(=O)C(CC=C)(C(=O)OCC)Oc2cc(F)ccc21 (stereo not shown)	L02	cell growth or viability, CCK-8		50 µM, 72 h		inhibition	0.53%
CC(C)(C)C(=O)OCOP(=O)(OCOC(=O)C(C)(C)C)C1CCCN(O)C1=O (stereo not shown)	IGROV-1					log LC50	> -4 log M
CC(C)C[C@H](NC(=O)[C@H](CC(=O)O)NC(=O)CNC(=O)[C@@H](N)CCCNC(=N)N)C(=O)N[C@@H](C)C(=O)N[C@H](C(=O)N[C@@H](CC(C)C)C(=O)N[C@@H](CCCNC(=N)N)C(=O)N[C@@H](CCC(N)=O)C(=O)N[C@@H](CC(C)C)C(=O)N[C@@H](C)C(=O)N[C@@H](CCC(N)=O)C(=O)N[C@@H](CCC(=O)O)C(=O)N[C@@H](CC(=O)O)C(=O)NCC(=O)N[C@H](C(=O)N[C@H](C(=O)NCC(=O)N[C@H](C(=O)N[C@@H](CCCNC(=N)N)C(=O)NCCOCCOCCOCCOCCOCCOCCOCCOCCOCCOCCOCCOCCC(=O)N[C@@H](CS)C(N)=O)C(C)C)C(C)C)C(C)C)[C@@H](C)O	HCC1359 lung squamous carcinoma	cell binding, phage binding, refers to: output/input phage		10 min, 37 °C	reference: control phage	selectivity ratio	5.4 ± 1.3
CSc1ccc2c(c1)c(CCN)c(C)n2Cc1ccccc1Cl	HMC3	phagocytosis, high-content imaging		geometric mean, together with: pHrodo-myelin uptake		EC50	2.54 µM
C#CCN1C(=O)C(CC#C)(C(=O)OCC)Oc2ccccc21 (stereo not shown)	HaCaT	cell growth or viability, CCK-8		50 µM, 72 h		inhibition	0.11%
CSCC[C@H](NC(=O)[C@@H](NC(=O)[C@H](CCC(N)=O)NC(=O)[C@H](CO)NC(=O)[C@@H](N)C(C)C)[C@@H](C)O)C(=O)N[C@@H](CCCNC(=N)N)C(=O)N[C@@H](CCC(N)=O)C(=O)N[C@H](C(=O)N[C@@H](C)C(=O)N[C@H](C(=O)N1CCC[C@H]1C(=O)N[C@@H](CC(C)C)C(=O)N[C@@H](CC(C)C)C(=O)N[C@@H](Cc1c[nH]c2ccccc12)C(=O)N[C@@H](Cc1ccccc1)C(=O)N[C@@H](Cc1c[nH]c2ccccc12)C(=O)N[C@H](C(=O)NCC(=O)N[C@@H](CO)C(=O)N[C@@H](CC(C)C)C(=O)NCCOCCOCCOCCOCCOCCOCCOCCOCCOCCOCCOCCOCCC(=O)N[C@@H](CS)C(N)=O)[C@@H](C)O)C(C)C)[C@@H](C)O	H460 lung large cell carcinoma	cell binding, phage binding, refers to: output/input phage		10 min, 37 °C	reference: control phage	selectivity ratio	3.2 ± 0.81

A few entries again:
Structure (SMILES)	cell line	test	system	conditions	how to read	quantity	result
C#CCN1C(=O)C(CC#C)(C(=O)OCC)Oc2ccccc21 (stereo not shown)	HaCaT	cell growth or viability, CCK-8		50 µM, 72 h		inhibition	0.11%
